Published values pooled from the literature.
Protocols differ between the studies behind these lines. ± gives the spread as reported.

SMILES	target or system	test	system	conditions	how to read	endpoint	result
COc1ccc2c(C)nc(Nc3nc(O)cc(-c4ccccc4)n3)nc2c1	Mus musculus	gene silencing, high-content imaging	LDR reporter GFP cells	retest, mean of two runs	–	EC50	6.31 µM
Nc1ncc(-c2cc(-c3cnn(CC(F)(F)F)c3)ncc2F)nc1C(=O)NC1CNCC(F)C1 (stereo not shown)	HIPK4	KINOMEscan	–	1 µM	relative to: DMSO control	remaining binding	80%
CCN(CC)CC(=O)Nc1cccc(-n2cc(-c3ccc4ccc(-c5cn(-c6cccc(NC(=O)CN(CC)CC)c6)nn5)cc4c3)nn2)c1	RCC4	PCR angiogenesis array, measured: ANGPTL4	–	5 x IC50, 2 h, normoxia	relative to: untreated	fold regulation	-1.49
C=CC(=O)Nc1cccc(Cn2ncc3cnc(Nc4cnn(CCOC)c4)nc32)c1	HIPK1 human	binding, KINOMEscan	–	100 nM	lower = stronger binding	percent of control	88%
CC(C)C[C@H](NC(=O)[C@H](CC(=O)O)NC(=O)CNC(=O)[C@@H](N)CCCNC(=N)N)C(=O)N[C@@H](C)C(=O)N[C@H](C(=O)N[C@@H](CC(C)C)C(=O)N[C@@H](CCCNC(=N)N)C(=O)N[C@@H](CCC(N)=O)C(=O)N[C@@H](CC(C)C)C(=O)N[C@@H](C)C(=O)N[C@@H](CCC(N)=O)C(=O)N[C@@H](CCC(=O)O)C(=O)N[C@@H](CC(=O)O)C(=O)NCC(=O)N[C@H](C(=O)N[C@H](C(=O)NCC(=O)N[C@H](C(=O)N[C@@H](CCCNC(=N)N)C(=O)NCCOCCOCCOCCOCCOCCOCCOCCOCCOCCOCCOCCOCCC(=O)N[C@@H](CS)C(N)=O)C(C)C)C(C)C)C(C)C)[C@@H](C)O	–	ex vivo NIR imaging	NOD/SCID mice, xenograft, H2009 xenograft	intravenous, 30 µg, 24 h	relative to: spleen	fluorescence signal ratio	355
O=C(N/N=C/c1ccc(C[n+]2ccccc2)cc1)c1cc(C(=O)N/N=C/c2ccc(C[n+]3ccccc3)cc2)ncn1	MYC parallel G4 DNA	FRET melting	–	1 µM, DNA 0.2 µM	–	ΔTm	2.3 ± 0.3 °C
COc1cccc(/C=N/Nc2nc(Nc3ccccc3)nc(-n3nc(C)cc3C)n2)c1O	Mus musculus	gene silencing, high-content imaging	LDR reporter GFP cells	retest run 2	–	AC50	6.31 µM
O=C(N/N=C/c1cc[n+](CC2CC2)c2ccccc12)N/N=C/c1cc[n+](CC2CC2)c2ccccc12	hp2 hairpin duplex DNA	FRET melting	–	1 µM, added: ds26 10 µM	–	ΔTm	0.5 ± 0.2 °C
COC1OC(C)C(OC2OC(C)C(O)C(OC3OC(C)C(OC4OC(C)C(O)C(OC5OC(C)C(OC6OC(C)C(O)C(OC7OC(C)C(OC8OC(C)C(O)C(OC9OC(C)C(OC%10OC(C)C(O)C(OC%11OC(C)C(OC%12OC(C)C(O)C(OS(=O)(=O)O)C%12OS(=O)(=O)O)C(OS(=O)(=O)O)C%11OS(=O)(=O)O)C%10OS(=O)(=O)O)C(OS(=O)(=O)O)C9OS(=O)(=O)O)C8OS(=O)(=O)O)C(OS(=O)(=O)O)C7OS(=O)(=O)O)C6OS(=O)(=O)O)C(OS(=O)(=O)O)C5OS(=O)(=O)O)C4OS(=O)(=O)O)C(OS(=O)(=O)O)C3OS(=O)(=O)O)C2OS(=O)(=O)O)C(OS(=O)(=O)O)C1OS(=O)(=O)O (stereo not shown)	–	–	human plasma	128 µg/mL	relative to: control	prothrombin time prolongation	0.97 fold
O=C(N/N=C/c1cc[n+](Cc2ccccc2)c2ccccc12)c1ccc2ccc3ccc(C(=O)N/N=C/c4cc[n+](Cc5ccccc5)c5ccccc45)nc3c2n1	MYC parallel G4 DNA	FRET melting	–	1 µM, DNA 0.2 µM, added: duplex DNA competitor 10 µM	–	ΔTm	9.2 ± 0.3 °C
COC1CN([C@H]2CC[C@H]([C@@]3(C)Oc4c(Cl)cc(C(=O)NCc5c(SC)cc(C)[nH]c5=O)c(C)c4O3)CC2)C1	–	RNA-seq, measured: PDE2A mouse homolog	mouse, HT-1376 xenograft, whole blood	dose not given	relative to: vehicle	log2 fold change	1.94
Cc1ncsc1-c1ccc(C(C)NC(=O)C2CC(O)CN2C(=O)C(NC(=O)CCCCCCCCCCN2CCCC(Nc3ncc(Cl)c(Nc4ccccc4S(=O)(=O)C(C)C)n3)C2)C(C)(C)C)cc1 (stereo not shown)	22Rv1	RNA-seq, measured: RGS16 mRNA	–	concentration not given	relative to: DMSO	log2 fold change	-1.99
C[n+]1ccc(/C=N/NC(=O)c2cccc(C(=O)N/N=C/c3cc[n+](C)cc3)c2)cc1	hp2 hairpin duplex DNA	FRET melting	–	1 µM	–	ΔTm	-0.5 ± 0.3 °C
O=[N+]([O-])C(=C\Nc1ccccc1O)/C=N/c1ccccc1O	Mus musculus	gene silencing, high-content imaging	LDR reporter GFP cells	confirmation, mean of two runs	–	EC50	17.8 µM
O=C(N/N=C/c1ccc(C[n+]2ccccc2)cc1)c1cncc(C(=O)N/N=C/c2ccc(C[n+]3ccccc3)cc2)n1	MYC parallel G4 DNA	FRET melting	–	1 µM, DNA 0.2 µM, added: duplex DNA competitor 10 µM	–	ΔTm	4.3 ± 0.2 °C
CNS(=O)(=O)Nc1nccc(Cc2c(C)c3ccc(Oc4ncccc4F)cc3oc2=O)c1F	U-138 MG	cell viability, inhibitor, CellTiter-Glo	–	7 days	–	IC50	> 1 µM

For quick reference, copied from above:
SMILES	target or system	test	system	conditions	how to read	endpoint	result
C=CC(=O)Nc1cccc(Cn2ncc3cnc(Nc4cnn(CCOC)c4)nc32)c1	HIPK1 human	binding, KINOMEscan	–	100 nM	lower = stronger binding	percent of control	88%
CC(C)C[C@H](NC(=O)[C@H](CC(=O)O)NC(=O)CNC(=O)[C@@H](N)CCCNC(=N)N)C(=O)N[C@@H](C)C(=O)N[C@H](C(=O)N[C@@H](CC(C)C)C(=O)N[C@@H](CCCNC(=N)N)C(=O)N[C@@H](CCC(N)=O)C(=O)N[C@@H](CC(C)C)C(=O)N[C@@H](C)C(=O)N[C@@H](CCC(N)=O)C(=O)N[C@@H](CCC(=O)O)C(=O)N[C@@H](CC(=O)O)C(=O)NCC(=O)N[C@H](C(=O)N[C@H](C(=O)NCC(=O)N[C@H](C(=O)N[C@@H](CCCNC(=N)N)C(=O)NCCOCCOCCOCCOCCOCCOCCOCCOCCOCCOCCOCCOCCC(=O)N[C@@H](CS)C(N)=O)C(C)C)C(C)C)C(C)C)[C@@H](C)O	–	ex vivo NIR imaging	NOD/SCID mice, xenograft, H2009 xenograft	intravenous, 30 µg, 24 h	relative to: spleen	fluorescence signal ratio	355
O=C(N/N=C/c1ccc(C[n+]2ccccc2)cc1)c1cc(C(=O)N/N=C/c2ccc(C[n+]3ccccc3)cc2)ncn1	MYC parallel G4 DNA	FRET melting	–	1 µM, DNA 0.2 µM	–	ΔTm	2.3 ± 0.3 °C
